Measurements of several laboratories.
Every numbered part comes from another study and shows a few of its results, in no order. Several values in a cell are separate wells, animals, samples, runs or records.
Sequence of UniProt Q99640 (whole entry, looked up): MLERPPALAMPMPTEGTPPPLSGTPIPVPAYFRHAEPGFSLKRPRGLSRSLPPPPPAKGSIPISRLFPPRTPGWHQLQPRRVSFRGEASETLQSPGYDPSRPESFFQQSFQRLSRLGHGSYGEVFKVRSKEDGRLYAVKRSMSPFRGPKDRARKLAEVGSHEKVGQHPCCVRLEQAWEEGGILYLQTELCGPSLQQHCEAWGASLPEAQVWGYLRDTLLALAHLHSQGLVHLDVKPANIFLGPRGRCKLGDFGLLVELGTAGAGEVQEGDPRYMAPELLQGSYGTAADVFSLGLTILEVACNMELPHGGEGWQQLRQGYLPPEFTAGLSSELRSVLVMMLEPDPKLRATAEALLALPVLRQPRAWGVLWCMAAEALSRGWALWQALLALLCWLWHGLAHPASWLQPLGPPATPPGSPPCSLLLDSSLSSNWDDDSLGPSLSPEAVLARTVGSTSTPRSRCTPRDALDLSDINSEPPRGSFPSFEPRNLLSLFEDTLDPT

Study 1
SMILES: Cc1ncsc1-c1ccc(C(CO)NC(=O)C2CC(O)CN2C(=O)C(C(C)C)n2cc(-c3ccc(COc4c(-c5c(C)c(F)cc6[nH]ncc56)c(C5CC5)cc5c(N6CC7CC6CN7)nc(OC6CCOCC6)nc45)cc3)nn2)cc1 (centres unmarked)
Read-out: cell growth or viability
Technique: ATP luminescence
Time: 6 days
cell line	tested at	viability
PK-59	10 nM	56.6% and 70.9% and 60.4% and 73.2%
HT-29	1 µM	70.4% and 96.1% and 80.6% and 79.1%
GP5d	1 nM	50.9% and 71.7% and 74.6% and 80.7%
PK-59	30 nM	39.3% and 45.5% and 37.3% and 25.4%
T24	30 nM	89.9% and 101% and 95%
ASPC1	3 nM	87.5% and 80.7% and 93.7% and 66.4%
PSN1	0.3 µM	95.8% and 79.4% and 107% and 91.5%
GP2d	3 nM	64.8% and 49.7% and 50% and 44.1%
COLO 320	10 nM	102% and 83.2% and 81.7% and 88.9%
LCLC-97TM1	10 µM	12.7% and 16.1% and 14.9%

Study 2
SMILES: Cc1ccc(O)c(C)c1-c1cnc2[nH]c(-c3cnc(N4CCC5(CC4)CC(N4CCN(c6ccc(NC7CCC(=O)NC7=O)cc6F)CC4)CO5)nc3)cc2c1C#N (centres unmarked)
tested on	read-out	technique	refers to	IC50
HuCCT-1	CDK1 phosphorylation	–	CDK1 phospho-Thr14	29 nM
HCC1599	CDK1 phosphorylation	–	CDK1 phospho-Thr14	174 nM
Membrane-associated tyrosine- and threonine-specific cdc2-inhibitory kinase (PKMYT1, Homo sapiens, UniProt Q99640)	cell-free assay	TR-FRET	–	4.4 nM
MDA-MB-157	CDK1 phosphorylation	–	CDK1 phospho-Thr14	67 nM

Study 3
Compound: CCN1/C(=C/C=C2\CCCC(/C=C/C3=[N+](CC)c4ccccc4C3(C)C)=C2NCCCCCCCCN2CCC(Nc3nc4ccccc4n3Cc3ccc(F)cc3)CC2)C(C)(C)c2ccccc21
Cell line: U-87 MG
Tested at: concentration not given
Reference: DMSO
refers to	log2 fold change
ABHD4 mRNA	1.44
EBP mRNA	-1.19
UTRN mRNA	-1.39
PDLIM4 mRNA	-4.89
TMEM200B mRNA	-0.995
OSER1 mRNA	1.24
WAC mRNA	0.807
SASS6 mRNA	-1.37
CDS1 mRNA	-1.35
NUMB mRNA	0.826
RPS6KA5 mRNA	1.16
KRTAP1-5	-3.82
SQSTM1 mRNA	1.36
TIMP3 mRNA	-1.56
DIRAS1 mRNA	1.44
RAB39B mRNA	2.32

Study 4
SMILES: COCC1CC2C(CCC3C(O)CCC32)c2ccc(O)cc21 (centres unmarked)
cell line	technique	refers to	tested at	reference	mRNA level ratio
A549	DNA microarray	GINS1	100 µM	untreated cells	0.85
SK-OV-3	microarray	OLIG2	25 µM	untreated	1
SK-OV-3	DNA microarray	MCM10	25 µM	untreated cells	0.951
A549	DNA microarray	ACTA2	25 µM	untreated cells	0.898
SK-OV-3	DNA microarray	GINS1	25 µM	untreated cells	0.925
A549	DNA microarray	CCL8	25 µM	untreated cells	1
PANC-1	DNA microarray	KIF20A	100 µM	untreated cells	1.43 and 1.42 and 1.45 and 1.46
A549	microarray	CCL11	25 µM	untreated	553
SK-OV-3	microarray	SPC25	100 µM	untreated	0.771
PANC-1	DNA microarray	ACTB	25 µM	untreated cells	0.869 and 0.865 and 0.849 and 0.878 and 0.818
SK-OV-3	DNA microarray	C6	100 µM	untreated cells	352
SK-OV-3	microarray	CDC25B	25 µM	untreated	1.17
A549	DNA microarray	MCM10	25 µM	untreated cells	1.14
A549	DNA microarray	TMEM108	25 µM	untreated cells	2.65
A549	DNA microarray	C6	25 µM	untreated cells	219
SK-OV-3	DNA microarray	KIF20A	25 µM	untreated cells	1 and 1.01 and 0.937 and 0.949 and 0.942
SK-OV-3	microarray	CCL11	25 µM	untreated	226

A few entries again (study 3):
refers to	log2 fold change
PDLIM4 mRNA	-4.89
TMEM200B mRNA	-0.995
OSER1 mRNA	1.24
WAC mRNA	0.807
SASS6 mRNA	-1.37
